Experimental data gathered from unrelated publications.
Parts stem from different laboratories: compare values within a part only.
UniProt Q15746, sequence (whole entry, looked up): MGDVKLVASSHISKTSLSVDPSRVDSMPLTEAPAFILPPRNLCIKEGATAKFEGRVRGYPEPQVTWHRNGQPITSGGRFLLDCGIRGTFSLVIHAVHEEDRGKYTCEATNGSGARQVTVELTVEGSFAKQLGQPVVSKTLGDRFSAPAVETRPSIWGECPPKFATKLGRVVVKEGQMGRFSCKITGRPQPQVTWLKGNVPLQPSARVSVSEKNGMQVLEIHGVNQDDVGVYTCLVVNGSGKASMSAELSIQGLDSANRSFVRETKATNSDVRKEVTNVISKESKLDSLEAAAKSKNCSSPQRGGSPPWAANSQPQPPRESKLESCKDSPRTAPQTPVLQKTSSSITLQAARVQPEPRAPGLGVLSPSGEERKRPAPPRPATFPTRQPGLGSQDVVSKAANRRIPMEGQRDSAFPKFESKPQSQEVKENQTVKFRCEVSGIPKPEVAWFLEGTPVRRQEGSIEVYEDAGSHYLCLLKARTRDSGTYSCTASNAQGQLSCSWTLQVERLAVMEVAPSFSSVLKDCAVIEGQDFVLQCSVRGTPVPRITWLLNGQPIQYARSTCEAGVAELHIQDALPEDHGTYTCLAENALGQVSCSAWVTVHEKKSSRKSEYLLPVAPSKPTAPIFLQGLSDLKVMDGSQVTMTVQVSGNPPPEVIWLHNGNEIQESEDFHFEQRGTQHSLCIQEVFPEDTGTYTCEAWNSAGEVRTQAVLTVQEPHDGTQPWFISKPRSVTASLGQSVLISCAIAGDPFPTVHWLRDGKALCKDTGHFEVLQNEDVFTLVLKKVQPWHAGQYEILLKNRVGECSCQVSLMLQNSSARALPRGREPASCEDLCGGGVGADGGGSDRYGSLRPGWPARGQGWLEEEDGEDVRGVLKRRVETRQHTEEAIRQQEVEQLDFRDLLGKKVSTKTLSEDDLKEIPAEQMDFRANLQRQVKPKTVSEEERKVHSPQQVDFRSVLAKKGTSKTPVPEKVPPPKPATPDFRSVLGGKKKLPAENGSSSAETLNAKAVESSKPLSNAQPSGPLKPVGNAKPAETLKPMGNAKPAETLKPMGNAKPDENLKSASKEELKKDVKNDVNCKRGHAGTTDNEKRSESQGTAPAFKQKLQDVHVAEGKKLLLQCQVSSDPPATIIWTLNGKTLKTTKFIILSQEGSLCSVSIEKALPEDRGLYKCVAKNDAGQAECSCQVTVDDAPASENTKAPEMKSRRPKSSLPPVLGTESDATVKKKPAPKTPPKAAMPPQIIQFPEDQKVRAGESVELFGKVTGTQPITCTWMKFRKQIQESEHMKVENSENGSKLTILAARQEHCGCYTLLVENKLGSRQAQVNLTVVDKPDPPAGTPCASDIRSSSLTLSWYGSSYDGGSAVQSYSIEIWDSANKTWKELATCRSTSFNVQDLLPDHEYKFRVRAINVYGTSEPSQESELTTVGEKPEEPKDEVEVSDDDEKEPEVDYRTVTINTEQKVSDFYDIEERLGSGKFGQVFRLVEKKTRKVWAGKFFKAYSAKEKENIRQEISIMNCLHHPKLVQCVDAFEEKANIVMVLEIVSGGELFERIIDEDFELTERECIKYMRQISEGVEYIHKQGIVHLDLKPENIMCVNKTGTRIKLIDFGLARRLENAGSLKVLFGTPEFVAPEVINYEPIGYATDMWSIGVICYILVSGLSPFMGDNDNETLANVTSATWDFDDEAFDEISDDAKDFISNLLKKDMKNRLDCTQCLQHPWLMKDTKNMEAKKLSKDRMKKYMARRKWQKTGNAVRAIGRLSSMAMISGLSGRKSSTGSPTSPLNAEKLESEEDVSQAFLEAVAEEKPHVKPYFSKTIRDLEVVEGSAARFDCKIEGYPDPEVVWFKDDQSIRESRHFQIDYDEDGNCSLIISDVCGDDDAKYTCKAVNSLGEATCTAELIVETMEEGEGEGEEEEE
UniProt P10721, sequence (whole entry, unmodified, looked up): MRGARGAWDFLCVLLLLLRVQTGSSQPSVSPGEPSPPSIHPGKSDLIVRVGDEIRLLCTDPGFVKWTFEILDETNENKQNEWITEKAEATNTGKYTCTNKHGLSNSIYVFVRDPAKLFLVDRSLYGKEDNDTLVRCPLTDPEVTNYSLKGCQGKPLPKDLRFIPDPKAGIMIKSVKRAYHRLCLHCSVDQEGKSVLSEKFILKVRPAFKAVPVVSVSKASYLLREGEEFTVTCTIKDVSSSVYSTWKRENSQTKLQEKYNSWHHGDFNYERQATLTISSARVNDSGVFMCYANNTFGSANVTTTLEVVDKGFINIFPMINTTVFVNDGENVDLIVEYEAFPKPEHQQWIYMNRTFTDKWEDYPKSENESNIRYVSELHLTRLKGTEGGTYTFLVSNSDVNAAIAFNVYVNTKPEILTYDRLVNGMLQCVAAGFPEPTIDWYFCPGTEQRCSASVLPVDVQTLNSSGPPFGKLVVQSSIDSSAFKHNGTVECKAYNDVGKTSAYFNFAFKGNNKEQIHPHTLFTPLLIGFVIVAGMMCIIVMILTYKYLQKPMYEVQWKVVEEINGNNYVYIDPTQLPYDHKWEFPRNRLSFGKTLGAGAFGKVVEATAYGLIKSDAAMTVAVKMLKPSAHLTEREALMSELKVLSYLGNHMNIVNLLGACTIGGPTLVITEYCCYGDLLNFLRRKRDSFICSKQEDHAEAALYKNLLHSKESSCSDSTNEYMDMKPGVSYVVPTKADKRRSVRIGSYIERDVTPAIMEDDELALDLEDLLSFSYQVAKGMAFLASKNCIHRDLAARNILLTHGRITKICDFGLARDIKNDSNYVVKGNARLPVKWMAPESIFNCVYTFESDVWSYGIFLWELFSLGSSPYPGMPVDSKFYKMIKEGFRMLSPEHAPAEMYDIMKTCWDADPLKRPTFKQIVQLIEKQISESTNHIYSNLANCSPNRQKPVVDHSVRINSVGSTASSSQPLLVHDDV
UniProt Q9H4B4, sequence (whole entry, looked up): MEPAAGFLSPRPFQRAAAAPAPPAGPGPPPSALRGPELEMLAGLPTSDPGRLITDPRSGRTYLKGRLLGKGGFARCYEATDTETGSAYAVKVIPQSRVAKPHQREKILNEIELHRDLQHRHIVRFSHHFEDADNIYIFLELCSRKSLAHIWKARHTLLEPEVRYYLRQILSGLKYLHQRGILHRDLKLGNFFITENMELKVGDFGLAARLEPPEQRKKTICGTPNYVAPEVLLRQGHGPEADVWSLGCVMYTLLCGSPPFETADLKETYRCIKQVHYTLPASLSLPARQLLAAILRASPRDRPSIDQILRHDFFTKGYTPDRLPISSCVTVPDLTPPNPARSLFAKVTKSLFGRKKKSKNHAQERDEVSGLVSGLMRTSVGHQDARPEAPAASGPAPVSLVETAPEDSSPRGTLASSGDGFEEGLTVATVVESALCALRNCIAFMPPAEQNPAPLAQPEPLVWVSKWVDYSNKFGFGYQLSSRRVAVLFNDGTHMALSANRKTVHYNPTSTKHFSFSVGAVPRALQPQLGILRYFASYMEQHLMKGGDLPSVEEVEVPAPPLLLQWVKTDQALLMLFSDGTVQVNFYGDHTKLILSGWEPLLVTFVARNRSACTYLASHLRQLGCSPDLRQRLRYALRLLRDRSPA
UniProt Q86YV6, sequence (whole entry, looked up): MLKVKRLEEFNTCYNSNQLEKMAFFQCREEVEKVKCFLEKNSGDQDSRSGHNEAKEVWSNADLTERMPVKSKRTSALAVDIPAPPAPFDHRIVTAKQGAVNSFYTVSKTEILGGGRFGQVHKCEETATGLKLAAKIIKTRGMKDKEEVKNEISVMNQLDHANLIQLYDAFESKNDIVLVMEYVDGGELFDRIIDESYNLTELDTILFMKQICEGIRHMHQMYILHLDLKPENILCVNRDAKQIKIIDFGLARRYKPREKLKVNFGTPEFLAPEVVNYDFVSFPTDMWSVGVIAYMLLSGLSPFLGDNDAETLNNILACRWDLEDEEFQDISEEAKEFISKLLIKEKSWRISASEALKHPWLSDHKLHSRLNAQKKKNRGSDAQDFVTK

Study 1
Structure (SMILES): O=C(c1cc2cc(O)ccc2[nH]1)c1cc2cc(O)ccc2[nH]1
Effect on: enzyme activity
Mode: inhibitor
Concentration: 0.5 µM
Baseline: control
target | remaining activity
Serine/threonine-protein kinase Sgk1 (SGK1, Homo sapiens, UniProt O00141) | 74.2%
Ephrin type-B receptor 2 (EPHB2, Homo sapiens, UniProt P29323) | 76.7%
SRSF protein kinase 3 (SRPK3, Homo sapiens, UniProt Q9UPE1) | 99.4%
Serine/threonine-protein kinase PAK 2 (PAK2, Homo sapiens, UniProt Q13177) | 97%
Myosin light chain kinase, smooth muscle (MYLK, Homo sapiens, UniProt Q15746) | 91.4%
Serine/threonine-protein kinase pim-2 (PIM2, Homo sapiens, UniProt Q9P1W9) | 108%
Ribosomal protein S6 kinase alpha-1 (RPS6KA1, Homo sapiens, UniProt Q15418) | 30.1%
Protein kinase C gamma type (PRKCG, Homo sapiens, UniProt P05129) | 85.1%
Beta-adrenergic receptor kinase 1 (GRK2, Homo sapiens, UniProt P25098) | 98.2%
Tyrosine-protein kinase CSK (CSK, Homo sapiens, UniProt P41240) | 106%

Study 2
Target: Calcium/calmodulin-dependent protein kinase type II subunit alpha (CAMK2A, Homo sapiens, UniProt Q9UQM7)
UniProt Q9UQM7, sequence (whole entry, looked up): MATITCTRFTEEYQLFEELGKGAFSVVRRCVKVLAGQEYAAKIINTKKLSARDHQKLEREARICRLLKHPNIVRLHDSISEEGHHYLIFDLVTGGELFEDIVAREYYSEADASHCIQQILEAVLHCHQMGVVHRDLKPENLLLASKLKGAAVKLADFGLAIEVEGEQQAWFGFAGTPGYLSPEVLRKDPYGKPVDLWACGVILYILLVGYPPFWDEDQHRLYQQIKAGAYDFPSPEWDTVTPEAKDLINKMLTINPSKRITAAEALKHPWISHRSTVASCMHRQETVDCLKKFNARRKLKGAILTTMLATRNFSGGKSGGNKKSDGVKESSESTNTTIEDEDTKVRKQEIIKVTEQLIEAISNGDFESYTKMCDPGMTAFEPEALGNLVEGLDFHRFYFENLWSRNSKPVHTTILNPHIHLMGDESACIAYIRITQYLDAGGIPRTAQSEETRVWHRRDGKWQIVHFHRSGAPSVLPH
Effect on: enzyme activity
Mode: inhibitor
Concentration: 10 µM
SMILES | inhibition [%]
COc1cc(/C=C/C(=O)O[C@@H]2C[C@](O)(C(=O)O)C[C@@H](O)[C@H]2O)ccc1O | -5
O=C(O)[C@H]1CCCN1 | -11
COc1cc(O)cc2oc(-c3ccc(O)c(O)c3)c(O)c(=O)c12 | 55
C[C@@]12C[C@@]3(O)O[C@@H](O1)[C@]1(COC(=O)c4ccccc4)[C@@H]3C[C@]12O[C@@H]1O[C@H](COC(=O)c2cc(O)c(O)c(O)c2)[C@@H](O)[C@H](O)[C@H]1O | -5
C[C@@H](CN)C(=O)O | 17
Cc1cc(NS(=O)(=O)c2ccc(N)cc2)no1 | -14

Study 3
Structure (SMILES): O=C(Nc1cnn(-c2csc(C(=O)NC3COC3)c2)c1)Nc1c(F)cccc1Cl
Concentration: 5 µM
target | effect on | technique | baseline | remaining activity [%]
BDNF/NT-3 growth factors receptor (NTRK2, Homo sapiens, UniProt Q16620) | enzyme activity | – | untreated control | 88.2
Serine/threonine-protein kinase MRCK gamma (CDC42BPG, Homo sapiens, UniProt Q6DT37) | enzyme activity | – | untreated control | 115
Serine/threonine-protein kinase PLK3 (PLK3, Homo sapiens, UniProt Q9H4B4) | enzyme activity | – | untreated control | 95.9
Cyclin-dependent kinase 7 (CDK7, Homo sapiens, UniProt P50613) | enzyme activity | – | untreated control | 94.9
Serine/threonine-protein kinase greatwall (MASTL, Homo sapiens, UniProt Q96GX5) | enzyme activity | – | untreated control | 93.5
cGMP-dependent protein kinase 2 (PRKG2, Homo sapiens, UniProt Q13237) | enzyme activity | – | untreated control | 99.4
cGMP-dependent protein kinase 1, isoform beta (PRKG1, Homo sapiens, UniProt Q13976) | kinase activity | kinase panel profiling | – | 98.3
Serine/threonine-protein kinase D2 (PRKD2, Homo sapiens, UniProt Q9BZL6) | enzyme activity | – | untreated control | 98.1
Myosin light chain kinase, smooth muscle (MYLK, Homo sapiens, UniProt Q15746) | enzyme activity | – | untreated control | 92.8

Study 4
SMILES: CCCOc1ccc([C@H]2[C@H](C(=O)O)[C@@H](c3ccc4c(c3)OCO4)CN2CC(=O)Nc2c(CC)cccc2CC)cc1
Technique: competition with immobilised ligand
Concentration: 1 µM
target | effect on | remaining binding
Bone morphogenetic protein receptor type-1A (BMPR1A, Homo sapiens, UniProt P36894) | binding | 100%
Mast/stem cell growth factor receptor Kit (KIT, Homo sapiens, UniProt P10721, D816H) | cell-free assay | 72%
Protein kinase C epsilon type (PRKCE, Homo sapiens, UniProt Q02156) | cell-free assay | 74%
Phosphatidylinositol 4,5-bisphosphate 3-kinase catalytic subunit delta isoform (PIK3CD, Homo sapiens, UniProt O00329) | cell-free assay | 75%
Insulin receptor (INSR, Homo sapiens, UniProt P06213) | cell-free assay | 74%
Phosphatidylinositol 4-kinase beta (PI4KB, Homo sapiens, UniProt Q9UBF8) | cell-free assay | 75%
Dual specificity protein kinase CLK3 (CLK3, Homo sapiens, UniProt P49761) | cell-free assay | 97%
Casein kinase I isoform gamma-2 (CSNK1G2, Homo sapiens, UniProt P78368) | cell-free assay | 100%
NT-3 growth factor receptor (NTRK3, Homo sapiens, UniProt Q16288) | cell-free assay | 71%
Cyclin-dependent kinase 14 (CDK14, Homo sapiens, UniProt O94921) | cell-free assay | 100%
Casein kinase I isoform gamma-3 (CSNK1G3, Homo sapiens, UniProt Q9Y6M4) | cell-free assay | 100%
Receptor-interacting serine/threonine-protein kinase 1 (RIPK1, Homo sapiens, UniProt Q13546) | cell-free assay | 88%
Mast/stem cell growth factor receptor Kit (KIT, Homo sapiens, UniProt P10721, D816V) | cell-free assay | 92%
Myosin light chain kinase family member 4 (MYLK4, Homo sapiens, UniProt Q86YV6) | cell-free assay | 75%
Phosphatidylinositol 4,5-bisphosphate 3-kinase catalytic subunit beta isoform (PIK3CB, Homo sapiens, UniProt P42338) | cell-free assay | 73%

A few entries again (study 1):
target | remaining activity
Serine/threonine-protein kinase pim-2 (PIM2, Homo sapiens, UniProt Q9P1W9) | 108%
Serine/threonine-protein kinase PAK 2 (PAK2, Homo sapiens, UniProt Q13177) | 97%
